Experimental data pooled from the literature.
± marks the error that the study gave.

NC(=O)c1cnc2[nH]ccc2c1N[C@@H]1[C@@H]2CC3C[C@H]1C[C@@](O)(C3)C2 — AUC(0-inf) (healthy Japanese men, plasma; oral, 200 mg, single dose fasted): 2520 ng·h/mL
CN1C(=O)[C@@H](NC(=O)c2nnc(Cc3ccccc3)[nH]2)COc2ccccc21 — AUC(0-inf) (healthy men, plasma; oral, 60 mg twice daily, day 1, geometric mean): 4420 ng·h/mL
CNC(=O)c1ccc(-c2cnc3ncc(Cc4ccc5ncccc5c4)n3n2)cc1F — AUC(0-inf) (mild hepatic impairment; oral, 200 mg, mean): 4870 ng·h/mL
CC(C)=CCC[C@](C)(O[C@@H]1O[C@H](CO)[C@@H](O)[C@H](O)[C@H]1O)[C@H]1CC[C@]2(C)[C@@H]1[C@H](O)C[C@@H]1[C@@]3(C)CC[C@H](O[C@@H]4O[C@H](CO)[C@@H](O)[C@H](O)[C@H]4O)C(C)(C)[C@@H]3CC[C@]12C — AUC(0-inf) (LC-MS/MS; healthy female volunteers, serum; oral, 3 g red ginseng): 9.28 ± 3.71 ng·h/mL
Nc1cccc2c1C(=O)N(C1CCC(=O)NC1=O)C2=O (centres unmarked) — AUC(0-inf) (healthy male smokers, plasma; oral, 4 mg, single dose, about 25 cigarettes per day, geometric mean): 463 ng·h/mL
C[C@H]1Oc2cc(cnc2N)-c2c(nn(C)c2C#N)CN(C)C(=O)c2ccc(F)cc21 — AUC(0-inf) (healthy adults; oral tablet, 100 mg single dose, adjusted geometric mean, together with: rabeprazole 20 mg): 8550 ng·h/mL
COc1cc(OC)c(/C=C/S(=O)(=O)Cc2ccc(OC)c(NCC(=O)O)c2)c(OC)c1 — AUC(0-inf) (cancer patients, phase I, plasma; oral, 700 mg twice daily, day 21 cycle 1): 4960 ± 1710 ng·h/mL
CCOc1ccc(Cc2cc([C@@H]3S[C@H](CO)[C@@H](O)[C@H](O)[C@H]3O)c(OC)cc2C)cc1 — AUC(0-inf) (Japanese type 2 diabetes patients, plasma; oral, 5 mg single dose, eGFR 60-89 mL/min/1.73 m^2): 2070 ± 395 ng·h/mL
COc1cccc(N2CCN(C3=Nc4c(F)cccc4[C@H](CC(=O)O)N3c3cc(C(F)(F)F)ccc3OC)CC2)c1 — AUC(0-inf) (UHPLC-MS/MS; healthy women, plasma; intravenous infusion, 720 mg single dose, 60 min infusion, HPβCD formulation): 168000 ± 23200 ng·h/mL
COc1ccc2c3c1O[C@H]1C[C@@H](OC(=O)c4ccccc4)C=C[C@@]31CCN(C)C2 — AUC(0-inf) (healthy young men, plasma; intranasal, 5.5 mg, single dose): 20 ng·h/mL
CC(C)=CCC[C@](C)(O[C@@H]1O[C@H](CO)[C@@H](O)[C@H](O)[C@H]1O)[C@H]1CC[C@]2(C)[C@@H]1[C@H](O)C[C@@H]1[C@@]3(C)CC[C@H](O[C@@H]4O[C@H](CO)[C@@H](O)[C@H](O)[C@H]4O[C@@H]4O[C@H](CO)[C@@H](O)[C@H](O)[C@H]4O)C(C)(C)[C@@H]3CC[C@]12C — AUC(0-inf) (LC-MS/MS; healthy male volunteers, serum; oral, 3 g fermented red ginseng): 191 ± 102 ng·h/mL
